{"data": "Published values collected from several papers", "note": "Parts stem from different laboratories: compare values within a part only. Substitutions count along the parent as printed."}
{"data": "Study 1", "target": "RNA binding protein fox-1 homolog 2, RRM domain, GST-SBP tag (RBFOX2, Homo sapiens, UniProt O43251-10, residues 100-194)", "technique": "RNA Bind-n-Seq", "molecule type": "RNA", "sample": "in vitro", "tested at": "365 nM", "setting": "natural RNA segment, single round, ends assumed", "relative to": "no-protein control", "direction": "higher = stronger binding", "all sequences stand within": "GGGAGUUCUACAGUCCGACGAUC … UGGAAUUCUCGGGUGCCAA", "Construct (chain)": "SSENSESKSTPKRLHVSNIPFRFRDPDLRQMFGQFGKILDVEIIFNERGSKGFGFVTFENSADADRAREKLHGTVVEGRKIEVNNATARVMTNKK"}
{"Oligonucleotide": "CUUACAUGUAAACUUGCGUGUUUGUGAAAAUGGCCCUUUAAGUAUAUUUAAUUUUUUGCCACAUAUUUAUUUAAAGGCGAGCAAUAUUUUCUUGGUCACAAUAUUUUUUA", "RBNS enrichment (R)": 0.669}
{"Oligonucleotide": "AUCCAUGUGUUGAUUUCCUGUUUCCUCCUCCCCCGCCUCUUCCAGUUCAAAGGAGUCUGCAAUUGGAACUGCUGAUUUUCGGUGGGUUUUGUAGUUGAUUUUUCCAAGAG", "RBNS enrichment (R)": 0.233}
{"Oligonucleotide": "AUGGGAACAAGUGCCUUUGUUCGAAAAAUCUAUACUAAUGUGAAAAUUGACUAGAUAUCUGAGACAACAUGGAACUUCGGAUCAGUUUCUCUUUCAUGAGGGUGGAACUU", "RBNS enrichment (R)": 0.369}
{"Oligonucleotide": "UAGUUAAGCUGUAUAUUAGCAGUGAAGGUGUUAGAGAGAUGAGAUGAUGGUUUGAAAGUGUGUUGAAGACUAGACUAGAUUUGCAGAAAGAGUAGGACAGAAGAGCGGCG", "RBNS enrichment (R)": 6.4}
{"Oligonucleotide": "GAUCCUUGCUUUCCUAGGUAAAUUAUGCUGGAGUGCUUCCAGUACUAAGGCCUCUUGAUUCUUUCCCCUUGAACACUAUGAGCACUGACAAAUCAUGGUAGAGGUGCCCA", "RBNS enrichment (R)": 0.533}
{"Oligonucleotide": "AAAAUCUUUUAUAGGAGUGCAGUGCUCCUAUACAAAGGGAAGAUGAGCCAGCAGUCCAGGCUCCUCCUCAGUUACAGUGCUGACAUAAUAAACAGUGACAGAUCAACAGU", "RBNS enrichment (R)": 0.353}
{"Oligonucleotide": "UGUGUGUUGGCGCGCUAAGUGCCACAUGCUUGUGUGUAGAGGAGGAGGUGGCCCUGCCGGCUCCGCGCUGCUGUGCCUGUGAUCCCUACCUGCUCCCCGCUCCUGUUGCC", "RBNS enrichment (R)": 0.242}
{"Oligonucleotide": "AGGGAACUAGAUAACAUACUUCUUACUUGUCUGUACAGUACCUUGUUGCAGAUGGGUGAUAUAUAAUGGUAAUAGAAUAGCACAGCCAGACUUGCUUCCUGCAUGGUAGG", "RBNS enrichment (R)": 2.19}
{"Oligonucleotide": "ACGCUCACUCAGUGCCCACUGGGUGCCAGGCUCUGGGCUCAACCCUCUAAUAUCCACACAUUCCAUCCCCCCAGCCCCAUGUAGAUGGUGGGGUUAAGACCAUUCUUCAG", "RBNS enrichment (R)": 0.3}
{"Oligonucleotide": "AAAGCUCUCUCUGAAUGUACUGUGUGACAAUGCAUCAUGCAUGAACCUUCGGUCAGGGAUGUCGUUGGGGAAGUGACUUCAAAAGUAUUCAAAAUUUGACAUGCUGUUUG", "RBNS enrichment (R)": 0.401}
{"Oligonucleotide": "CUGACUUAACGUUCUAUAAAUGAAUGUGCUGAAGCAAAGUGCCCAUGGUGGCGGCGAAGAAGAGAAAGAUGUGUUUUGUUUUGGACUCUCUGUGGUCCCUUCCAAUGCUG", "RBNS enrichment (R)": 0.49}
{"Oligonucleotide": "UGUCACUCCUCACCUGAGAGGAAGCAGUGGGUGGUCUGACUCUGCAGCCCAGAGACACAGGAGGCUUCAGGGACAGUGCCCUACUCUAGAAACACCUGCCACUCUAGAUA", "RBNS enrichment (R)": 0.394}
{"data": "Study 2", "target": "POU, POU domain (Salpingoeca helianthica)", "technique": "Spec-seq", "molecule type": "double-stranded DNA, one strand shown", "sample": "in vitro", "tested at": "not given", "setting": "whole probe, mean of replicates", "relative to": "not given", "direction": "lower = stronger binding", "all sequences stand within": "GAGTCGTCTCGTCAGCAC … CCGTAGAGCACTCAGGTC", "Residues (chain)": "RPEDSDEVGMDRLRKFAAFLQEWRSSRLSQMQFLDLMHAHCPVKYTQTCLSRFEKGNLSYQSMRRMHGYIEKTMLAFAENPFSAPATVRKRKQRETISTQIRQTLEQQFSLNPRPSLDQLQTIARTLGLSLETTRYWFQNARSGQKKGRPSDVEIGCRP"}
{"Oligonucleotide": "ATGGGCAT", "relative binding energy [ln ratio]": 1.36}
{"Oligonucleotide": "ATTCGCAT", "relative binding energy [ln ratio]": 1.2}
{"Oligonucleotide": "GCCTTAAT", "relative binding energy [ln ratio]": 0.44}
{"Oligonucleotide": "CTGGTAAT", "relative binding energy [ln ratio]": 0.506}
{"Oligonucleotide": "ATCCGAAT", "relative binding energy [ln ratio]": 1.4}
{"Oligonucleotide": "GCGGTAAT", "relative binding energy [ln ratio]": 0.712}
{"Oligonucleotide": "ATGCGGAG", "relative binding energy [ln ratio]": 1.48}
{"Oligonucleotide": "ATAGAAAT", "relative binding energy [ln ratio]": 1.2}
{"Oligonucleotide": "ATGGTAAT", "relative binding energy [ln ratio]": 0.68}
{"Oligonucleotide": "CGCCTAAT", "relative binding energy [ln ratio]": 0.939}
{"Oligonucleotide": "TCCCTAAT", "relative binding energy [ln ratio]": 0.635}
{"Oligonucleotide": "ATCCCTAT", "relative binding energy [ln ratio]": 1.09}
{"Oligonucleotide": "GGACTAAT", "relative binding energy [ln ratio]": 0.615}
{"Oligonucleotide": "CGCATAAT", "relative binding energy [ln ratio]": 0.504}
{"Oligonucleotide": "ATCCCAAT", "relative binding energy [ln ratio]": 1.11}
{"Oligonucleotide": "ATAGGAAT", "relative binding energy [ln ratio]": 1.52}
{"Oligonucleotide": "ATGGACAT", "relative binding energy [ln ratio]": 1.28}
{"Oligonucleotide": "ATGCCGCC", "relative binding energy [ln ratio]": 1.3}
{"Oligonucleotide": "GGGCTAAT", "relative binding energy [ln ratio]": 0.812}
{"Oligonucleotide": "GCGATAAT", "relative binding energy [ln ratio]": 0.251}
{"Oligonucleotide": "ATTTGTAT", "relative binding energy [ln ratio]": 0.844}
{"Oligonucleotide": "TTTTTAAT", "relative binding energy [ln ratio]": -0.092}
{"Oligonucleotide": "ATCATCAT", "relative binding energy [ln ratio]": 1.11}
{"Oligonucleotide": "ATGCCTCA", "relative binding energy [ln ratio]": 1.69}
{"Oligonucleotide": "ATTGGCAT", "relative binding energy [ln ratio]": 1.38}
{"data": "Study 3", "target": "CCND2, cyclin fold, Cln2 fusion (human)", "technique": "yeast growth competition, sequencing", "sample": "yeast", "setting": "weak parent motif", "relative to": "not given", "direction": "higher = stronger binding", "starting sequence": "E2F1 docking peptide (human); PPVKRRLDLETDH"}
{"Variant": "P2L", "normalised enrichment score": 0.0237}
{"Variant": "H13M", "normalised enrichment score": 0.347}
{"Variant": "L7P", "normalised enrichment score": 0.594}
{"Variant": "R6D", "normalised enrichment score": -0.279}
{"Variant": "P2Y", "normalised enrichment score": 0.361}
{"Variant": "T11L", "normalised enrichment score": 0.481}
{"Variant": "L7T", "normalised enrichment score": 0.389}
{"Variant": "V3Q", "normalised enrichment score": 0.523}
{"Variant": "R5E", "normalised enrichment score": 0.37}
{"Variant": "L7Q", "normalised enrichment score": 0.118}
{"Variant": "V3P", "normalised enrichment score": 0.157}
{"Variant": "R5G", "normalised enrichment score": 0.282}
{"Variant": "T11G", "normalised enrichment score": -0.0214}
{"Variant": "R5Y", "normalised enrichment score": 0.132}
{"Variant": "E10V", "normalised enrichment score": 0.0022}
{"Variant": "H13T", "normalised enrichment score": 0.502}
{"Variant": "P2F", "normalised enrichment score": 0.797}
{"Variant": "E10N", "normalised enrichment score": 0.36}
{"Variant": "T11F", "normalised enrichment score": 0.484}
{"Variant": "L7W", "normalised enrichment score": 0.391}
{"Variant": "K4G", "normalised enrichment score": 0.286}
{"Variant": "E10P", "normalised enrichment score": -0.0279}
{"Variant": "E10M", "normalised enrichment score": 0.301}
{"Variant": "K4S", "normalised enrichment score": 0.281}
{"data": "Study 4", "target": "ABI1, truncated, D143A, DHFR fusion (Arabidopsis thaliana)", "technique": "DHFR PCA, deep sequencing", "sample": "yeast", "setting": "methotrexate growth selection, single substitutions", "together with": "(+)-ABA 710 µM", "relative to": "wild-type fitted maximum", "direction": "higher = stronger binding", "starting sequence": "PYL1, truncated, DHFR fusion (Arabidopsis thaliana); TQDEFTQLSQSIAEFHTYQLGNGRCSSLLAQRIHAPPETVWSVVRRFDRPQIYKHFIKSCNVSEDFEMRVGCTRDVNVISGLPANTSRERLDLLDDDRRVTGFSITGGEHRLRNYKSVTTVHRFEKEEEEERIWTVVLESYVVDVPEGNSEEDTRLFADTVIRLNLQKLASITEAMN"}
{"Variant": "E130W", "relative binding score": "99.3%"}
{"Variant": "N149Q", "relative binding score": "80.9%"}
{"Variant": "N177F", "relative binding score": "100%"}
{"Variant": "C60P", "relative binding score": "22.6%"}
{"Variant": "V161T", "relative binding score": "66.3%"}
{"Variant": "A35C", "relative binding score": "95.5%"}
{"Variant": "S27A", "relative binding score": "96%"}
{"Variant": "E128I", "relative binding score": "104%"}
{"Variant": "T6C", "relative binding score": "108%"}
{"Variant": "V100C", "relative binding score": "108%"}
{"Variant": "V137T", "relative binding score": "60.5%"}
{"Variant": "E151S", "relative binding score": "101%"}
{"Variant": "L169C", "relative binding score": "59.1%"}
{"Variant": "E38N", "relative binding score": "90.2%"}
{"note": "A few entries again (study 4):"}
{"Variant": "L169C", "relative binding score": "59.1%"}
{"Variant": "V100C", "relative binding score": "108%"}
{"Variant": "S27A", "relative binding score": "96%"}
{"Variant": "E151S", "relative binding score": "101%"}
{"Variant": "E130W", "relative binding score": "99.3%"}
{"Variant": "E38N", "relative binding score": "90.2%"}
{"Variant": "A35C", "relative binding score": "95.5%"}
